{"data": "Published values collected from several papers", "note": "Each line is one published result; not all experiments were run side by side."}
{"Compound": "O=C1Nc2cc3[nH]nc(-c4ccncc4)c3cc2CN1Cc1ccccc1", "test": "CTCAE v4.03", "test system": "human, relapsed or refractory advanced solid tumours", "setting": "intravenous, 0.9 mg/kg, pooled schedules", "measurement": "patients with vomiting", "result": "0%"}
{"Compound": "C[C@]1(O)C[C@@](N)(c2ccc(-c3nc4n(c3-c3ccccc3)COc3ccncc3-4)cc2)C1", "test system": "human, advanced or metastatic solid tumours", "setting": "once daily, dose escalation total, any grade", "measurement": "patients with Hyperphosphatemia TEAE", "result": "33.3%"}
{"Compound": "Cc1cn([C@H]2O[C@@H](CO[P@@](=O)(N[C@@H](C)C(=O)OC(C)C)Oc3ccccc3)[C@H](O)[C@H]2F)c(=O)[nH]c1=O", "test": "refers to: grade 1/2", "test system": "human", "setting": "25 mg", "measurement": "patients with ALT/AST elevation", "result": "0%"}
{"Compound": "COc1ncnn2ccc(-c3cnc4nc(C)n(Cc5nnc([C@@H](C)F)o5)c4c3)c12", "test system": "human", "setting": "oral, dose not given, grade 4", "measurement": "patients with tumour lysis syndrome", "result": "0%"}
{"Compound": "COc1ccc(-c2c(-c3ccc(C#N)c(F)c3)nc(N3CCC(N)CC3)n(C)c2=O)cc1F", "test": "refers to: decreased appetite", "test system": "human patients", "setting": "oral, dose not given, dose escalation", "measurement": "patients with serious TEAE", "result": "2%"}
{"Compound": "CN(C)C(=O)c1cc2cnc(Nc3ccc(N4CCNCC4)cn3)nc2n1C1CCCC1", "test": "refers to: pulmonary embolism", "test system": "human, HR+/HER2− advanced breast cancer", "setting": "oral, dose not given, grade 4, CTCAE v4.03", "measurement": "patients with adverse event", "result": "0.3%"}
{"Compound": "C=CC(=O)Nc1cc(Nc2nccc(Nc3cc(Cl)c(F)cc3C(C)(C)O)n2)c(OC)cc1N1CC[C@@H](N(C)C)C1", "test system": "human patients", "setting": "oral, 50 mg, treatment-emergent adverse events", "measurement": "patients with lipase increased", "result": "0%"}
{"Compound": "C[C@@H]1OC(=O)NN=C1c1ccc(-c2ccc(F)cc2)c(C(F)(F)F)c1", "test": "phase I trial, refers to: platelet count decreased all grades", "test system": "human patients", "setting": "10 mg loading then 0.5 mg daily", "measurement": "patients with adverse event", "result": "0%"}
{"note": "For quick reference, copied from above:"}
{"Compound": "COc1ccc(-c2c(-c3ccc(C#N)c(F)c3)nc(N3CCC(N)CC3)n(C)c2=O)cc1F", "test": "refers to: decreased appetite", "test system": "human patients", "setting": "oral, dose not given, dose escalation", "measurement": "patients with serious TEAE", "result": "2%"}
